Published values collected from several papers.
A part holds a random share of what one study measured.

Study 1 — method: protein binding microarray; form: double-stranded DNA, one strand shown; sample: in vitro; concentration: not given; reference: not given; reading: higher = stronger binding
Target: Histone acetyltransferase KAT6A, both winged helices, GST fusion (KAT6A, Homo sapiens, UniProt Q92794, residues 1-181)
Setting: 8-mer, flanks averaged, mean of 2 arrays, mostly near background
Residues (chain): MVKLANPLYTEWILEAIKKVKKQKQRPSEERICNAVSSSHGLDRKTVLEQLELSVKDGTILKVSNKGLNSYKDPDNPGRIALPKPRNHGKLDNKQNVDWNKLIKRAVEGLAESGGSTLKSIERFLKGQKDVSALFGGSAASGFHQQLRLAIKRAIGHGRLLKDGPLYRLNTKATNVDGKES
With `AGCTCTAG` the E-score was -0.0529.
`AACGCTCA` has an E-score of 0.0723.
`GATGTCTA` gave an E-score of -0.015.
`CACCAAAC` has an E-score of 0.0183.
The E-score of `ATCTATGA` is reported as -0.159.
The E-score of `CGCGCGAG` is reported as 0.35.
With `CATGCGGC` the E-score was 0.209.
The E-score of `AATGAATG` is reported as -0.0578.

Study 2 — read-out: enzyme activity; action: inhibitor; concentration: 20 µM
Target: Replicase polyprotein 1ab, polymerase (rep, Severe acute respiratory syndrome coronavirus 2, UniProt P0DTD1)
With c1ccc2c(c1)CCCC2C1=NCCN1 (centres unmarked) the inhibition was 23.3%.
CC(C)(O)CS(=O)(=O)Nc1ccc2c(c1)CCN(C(=O)COc1cccnc1)C2 gave an inhibition of -2.41%.
With Nc1nonc1C(=Nc1ccc(F)c(Cl)c1)NO the inhibition was 0.22%.
COc1cc(CCc2cc(NC(=O)c3ccc(N4C[C@@H](C)N[C@@H](C)C4)cc3)n[nH]2)cc(OC)c1 gave an inhibition of -2.92%.
With O=C(NCCN1CCC2(CC1)C(=O)NCN2c1cccc(F)c1)c1ccc(F)c(F)c1 the inhibition was -1.23%.
The inhibition of CC(C)N(CCNC(=O)CN1CCCC1=O)C(C)C is reported as -4.66%.
CCCOc1ccc(Br)cc1-c1cc(-c2ccc(Cl)cc2)[nH]c1-c1ccncc1 has an inhibition of 6.13%.
The inhibition of CC(C)C[C@H](NC(=O)[C@@H](COC(C)(C)C)NC(=O)[C@H](Cc1ccc(O)cc1)NC(=O)[C@H](CO)NC(=O)[C@H](Cc1c[nH]c2ccccc12)NC(=O)[C@H](Cc1cnc[nH]1)NC(=O)[C@@H]1CCC(=O)N1)C(=O)N[C@@H](CCCNC(=N)N)C(=O)N1CCC[C@H]1C(=O)NNC(N)=O is reported as 1.82%.
With COC(=O)C1=C(C)NC(C)=C(C(=O)OCCSc2ccccc2)C1C (centres unmarked) the inhibition was -6.28%.
CC(C)S(=O)(=O)NC[C@H](C)c1ccc(-c2ccc(CCNS(C)(=O)=O)cc2)cc1 gave an inhibition of -0.75%.
The inhibition of CN1CCN(CC/C=C2/c3ccccc3Sc3ccc(S(=O)(=O)N(C)C)cc32)CC1 is reported as 1.95%.
With Cc1nc2sccn2c(=O)c1CCN1CCC(=C(c2ccccc2)c2ccc(F)cc2)CC1 the inhibition was 0.16%.
For CC(=O)N(C)c1cc(-c2ccnc3c(C(=O)c4cccs4)cnn23)ccc1F, the inhibition was 0.62%.
The inhibition of O=C[C@H](F)[C@@H](O)[C@@H](O)[C@H](O)CO is reported as -0.54%.
For Cc1c(C)c2c(c(C)c1O)CCC(C)(COc1ccc(CC3SC(=O)NC3=O)cc1)O2 (centres unmarked), the inhibition was -3.5%.
The inhibition of CCC(CC)Nc1nc(C)c(-c2ccc(OC(F)(F)F)cc2OC)nc1OC is reported as -11.2%.
With CCn1c2ccccc2c2cc(Nc3ccnc(NCCCN4CCOCC4)n3)ccc21 the inhibition was 1.83%.
The inhibition of CC(C)=CCC[C@](C)(O[C@@H]1O[C@H](CO)[C@@H](O)[C@H](O)[C@H]1O)[C@H]1CC[C@]2(C)[C@@H]1[C@H](O)C[C@@H]1[C@@]3(C)CC[C@H](O[C@@H]4O[C@H](CO)[C@@H](O)[C@H](O)[C@H]4O[C@@H]4O[C@H](CO)[C@@H](O)[C@H](O)[C@H]4O)C(C)(C)[C@@H]3CC[C@]12C is reported as -9.6%.
The inhibition of CC(C)(CO)CCCCCCC(C)(C)CO is reported as 8.55%.

Study 3 — organism: SARS-CoV-2; read-out: cytopathic effect; cell line: Vero E6; concentration: 10 µM
With Cc1ccc(C)c(-n2sc3cc(F)ccc3c2=O)c1 the inhibition was 3.6%.
The inhibition of O=C(O)[C@H]1O[C@@H](Oc2cc3oc(-c4ccccc4)cc(=O)c3c(O)c2O)[C@H](O)[C@@H](O)[C@@H]1O is reported as 0.4%.
N=C(N)NN=C1C=CC(=NNC(N)=S)C=C1 gave an inhibition of 5.4%.

Study 4 — method: protein-binding microarray; form: double-stranded DNA, one strand shown; sample: in vitro; concentration: 2200 nM top; setting: 60-bp whole probe; with: salmon DNA 0.4 mg/ml; reference: random background probes; reading: higher = stronger binding; constant ends, left off below: GCCTAGCAC … GTCTTGATTCGCTTGACGCTGCTG
Target: Interferon regulatory factor 7, full length, phosphomimetic (IRF7, Homo sapiens, UniProt Q92985, residues 1-503, S471D/S472D/S475D/S476D/S477D/S483D/S484D/S487D)
UniProt Q92985, sequence (whole entry, unmodified, looked up): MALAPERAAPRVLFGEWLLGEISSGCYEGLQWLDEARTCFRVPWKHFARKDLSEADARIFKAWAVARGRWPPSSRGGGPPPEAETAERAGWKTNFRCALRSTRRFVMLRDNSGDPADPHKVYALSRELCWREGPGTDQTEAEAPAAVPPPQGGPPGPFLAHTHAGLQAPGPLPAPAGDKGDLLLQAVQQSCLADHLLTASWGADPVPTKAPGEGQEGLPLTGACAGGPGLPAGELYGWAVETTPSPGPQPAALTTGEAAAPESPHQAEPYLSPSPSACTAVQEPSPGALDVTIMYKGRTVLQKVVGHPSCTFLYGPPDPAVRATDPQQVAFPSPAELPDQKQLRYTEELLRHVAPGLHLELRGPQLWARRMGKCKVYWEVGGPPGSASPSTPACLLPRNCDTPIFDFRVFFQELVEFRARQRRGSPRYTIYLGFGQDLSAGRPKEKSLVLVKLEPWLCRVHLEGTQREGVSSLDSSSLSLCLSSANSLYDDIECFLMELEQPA
`GACGGATTCCTACTGCTGACGTGCTAG` — result for “fitted relative affinity”: 0.776 z-score.
For `TGTAATGATGTAGGCAAATGGTGCTAG`, “fitted relative affinity” read -0.233 z-score.
Under “fitted relative affinity”, `TTAGATCTCAGTATCGATTCGTGCTAG` is recorded as 1.11 z-score.
For `TTAGGTTTCCTTTTCCATTAGTGCTAG`, “fitted relative affinity” read 5.08 z-score.
For `GACGATTTCGGGTTTGGAGACGTGCTA`, “fitted relative affinity” read 4.18 z-score.
For `TCAGGTTCCCATTCCAGACTGTGCTAG`, “fitted relative affinity” read 2.1 z-score.
Under “fitted relative affinity”, `TCGCACACATACGGCTTCTCGTGCTAG` is recorded as 1.23 z-score.
For `TCCTCTTTTTTGTTCCACGCGTGCTAG`, “fitted relative affinity” read 2.55 z-score.
